Measured values of several laboratories.
Each numbered part is a random draw from the data of one study; scales do not carry over between parts.
Sequence of UniProt O75676 (whole entry, looked up): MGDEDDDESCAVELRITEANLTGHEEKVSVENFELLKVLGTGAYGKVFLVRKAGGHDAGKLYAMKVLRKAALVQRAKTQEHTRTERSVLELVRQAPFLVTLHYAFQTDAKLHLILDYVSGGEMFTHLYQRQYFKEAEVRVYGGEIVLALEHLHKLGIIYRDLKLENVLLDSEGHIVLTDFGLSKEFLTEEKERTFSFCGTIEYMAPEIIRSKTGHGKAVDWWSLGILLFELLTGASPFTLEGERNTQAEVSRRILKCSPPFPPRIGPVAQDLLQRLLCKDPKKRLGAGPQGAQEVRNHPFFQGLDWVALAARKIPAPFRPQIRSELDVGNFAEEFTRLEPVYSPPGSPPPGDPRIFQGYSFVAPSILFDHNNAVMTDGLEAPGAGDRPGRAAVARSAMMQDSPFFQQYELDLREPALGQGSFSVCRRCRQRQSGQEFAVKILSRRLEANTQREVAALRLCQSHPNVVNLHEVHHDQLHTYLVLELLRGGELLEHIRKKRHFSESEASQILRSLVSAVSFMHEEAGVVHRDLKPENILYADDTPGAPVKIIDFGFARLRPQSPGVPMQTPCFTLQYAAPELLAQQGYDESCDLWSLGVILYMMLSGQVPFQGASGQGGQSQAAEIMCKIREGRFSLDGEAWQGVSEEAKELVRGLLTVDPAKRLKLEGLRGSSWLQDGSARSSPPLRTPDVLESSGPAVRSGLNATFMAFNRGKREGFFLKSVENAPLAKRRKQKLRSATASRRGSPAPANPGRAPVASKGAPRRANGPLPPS
Sequence of UniProt Q6P2M8 (whole entry, looked up): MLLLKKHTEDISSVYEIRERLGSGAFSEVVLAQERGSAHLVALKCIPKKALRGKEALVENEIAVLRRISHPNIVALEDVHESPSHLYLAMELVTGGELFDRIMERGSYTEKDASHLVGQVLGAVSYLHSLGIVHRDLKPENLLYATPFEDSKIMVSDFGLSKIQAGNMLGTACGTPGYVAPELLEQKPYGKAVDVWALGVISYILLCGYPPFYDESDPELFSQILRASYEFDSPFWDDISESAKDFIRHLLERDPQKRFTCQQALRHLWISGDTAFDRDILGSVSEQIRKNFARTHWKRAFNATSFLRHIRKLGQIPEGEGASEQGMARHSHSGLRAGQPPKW
Sequence of UniProt Q7KZI7 (whole entry, looked up): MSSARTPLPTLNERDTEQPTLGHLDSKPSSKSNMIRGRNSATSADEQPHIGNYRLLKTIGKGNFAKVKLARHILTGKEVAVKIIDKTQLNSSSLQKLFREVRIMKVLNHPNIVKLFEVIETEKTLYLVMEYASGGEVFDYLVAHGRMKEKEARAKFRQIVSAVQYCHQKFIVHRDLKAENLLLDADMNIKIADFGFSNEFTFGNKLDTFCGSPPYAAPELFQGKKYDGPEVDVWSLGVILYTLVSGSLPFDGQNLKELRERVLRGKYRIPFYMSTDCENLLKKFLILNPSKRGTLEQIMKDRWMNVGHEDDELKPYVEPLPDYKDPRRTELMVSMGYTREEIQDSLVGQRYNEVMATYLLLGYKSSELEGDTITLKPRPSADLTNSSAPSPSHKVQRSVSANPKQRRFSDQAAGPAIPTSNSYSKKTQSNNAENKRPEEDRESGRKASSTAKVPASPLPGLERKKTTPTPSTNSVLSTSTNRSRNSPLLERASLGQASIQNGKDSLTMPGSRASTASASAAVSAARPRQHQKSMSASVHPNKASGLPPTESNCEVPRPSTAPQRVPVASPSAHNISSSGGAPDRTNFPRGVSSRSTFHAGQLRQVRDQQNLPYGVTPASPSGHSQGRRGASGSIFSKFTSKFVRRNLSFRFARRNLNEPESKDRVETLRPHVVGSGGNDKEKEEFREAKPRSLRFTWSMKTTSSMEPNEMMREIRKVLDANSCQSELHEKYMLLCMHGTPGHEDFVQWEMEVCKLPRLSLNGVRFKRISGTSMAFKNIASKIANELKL
Sequence of UniProt O75914 (whole entry, looked up): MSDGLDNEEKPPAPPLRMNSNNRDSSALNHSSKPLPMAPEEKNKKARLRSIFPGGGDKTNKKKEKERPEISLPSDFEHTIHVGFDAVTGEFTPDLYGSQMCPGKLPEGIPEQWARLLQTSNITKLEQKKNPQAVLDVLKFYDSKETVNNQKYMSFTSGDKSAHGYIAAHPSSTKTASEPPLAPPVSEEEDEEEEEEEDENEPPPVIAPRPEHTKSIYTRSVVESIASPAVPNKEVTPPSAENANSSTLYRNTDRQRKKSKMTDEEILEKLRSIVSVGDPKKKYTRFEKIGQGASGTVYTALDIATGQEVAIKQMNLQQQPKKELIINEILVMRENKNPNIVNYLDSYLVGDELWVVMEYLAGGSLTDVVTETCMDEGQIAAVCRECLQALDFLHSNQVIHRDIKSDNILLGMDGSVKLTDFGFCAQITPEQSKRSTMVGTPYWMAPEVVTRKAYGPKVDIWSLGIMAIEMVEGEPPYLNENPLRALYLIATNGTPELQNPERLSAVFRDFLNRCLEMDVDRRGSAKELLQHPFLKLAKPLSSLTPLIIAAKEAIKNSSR
Sequence of UniProt Q13153 (whole entry, looked up): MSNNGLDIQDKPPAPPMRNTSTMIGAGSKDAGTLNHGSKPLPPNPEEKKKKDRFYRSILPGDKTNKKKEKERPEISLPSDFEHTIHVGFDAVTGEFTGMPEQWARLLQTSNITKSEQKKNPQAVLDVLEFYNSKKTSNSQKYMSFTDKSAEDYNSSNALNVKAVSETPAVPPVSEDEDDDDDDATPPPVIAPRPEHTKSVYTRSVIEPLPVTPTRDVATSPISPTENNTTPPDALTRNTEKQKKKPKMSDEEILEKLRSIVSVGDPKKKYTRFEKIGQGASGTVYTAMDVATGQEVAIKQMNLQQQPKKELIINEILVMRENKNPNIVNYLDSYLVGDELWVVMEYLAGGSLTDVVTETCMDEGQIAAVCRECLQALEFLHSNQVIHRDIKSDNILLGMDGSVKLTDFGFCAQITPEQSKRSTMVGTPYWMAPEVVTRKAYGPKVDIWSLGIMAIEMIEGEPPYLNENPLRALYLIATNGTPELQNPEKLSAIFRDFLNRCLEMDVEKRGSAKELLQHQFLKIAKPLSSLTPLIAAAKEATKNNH
Sequence of UniProt P49761 (whole entry, looked up): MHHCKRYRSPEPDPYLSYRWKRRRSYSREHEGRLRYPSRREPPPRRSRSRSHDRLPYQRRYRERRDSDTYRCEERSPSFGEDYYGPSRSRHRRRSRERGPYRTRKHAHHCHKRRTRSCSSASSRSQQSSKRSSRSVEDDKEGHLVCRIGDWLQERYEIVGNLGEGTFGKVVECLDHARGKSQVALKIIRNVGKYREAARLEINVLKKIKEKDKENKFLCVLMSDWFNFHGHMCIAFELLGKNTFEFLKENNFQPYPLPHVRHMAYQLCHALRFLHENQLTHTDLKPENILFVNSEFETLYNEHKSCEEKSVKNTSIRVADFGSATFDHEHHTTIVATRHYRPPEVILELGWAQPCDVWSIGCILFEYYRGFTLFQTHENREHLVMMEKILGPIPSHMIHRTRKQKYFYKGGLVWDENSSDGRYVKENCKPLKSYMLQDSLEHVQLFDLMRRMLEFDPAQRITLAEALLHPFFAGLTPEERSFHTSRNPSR
Sequence of UniProt P51957 (whole entry, looked up): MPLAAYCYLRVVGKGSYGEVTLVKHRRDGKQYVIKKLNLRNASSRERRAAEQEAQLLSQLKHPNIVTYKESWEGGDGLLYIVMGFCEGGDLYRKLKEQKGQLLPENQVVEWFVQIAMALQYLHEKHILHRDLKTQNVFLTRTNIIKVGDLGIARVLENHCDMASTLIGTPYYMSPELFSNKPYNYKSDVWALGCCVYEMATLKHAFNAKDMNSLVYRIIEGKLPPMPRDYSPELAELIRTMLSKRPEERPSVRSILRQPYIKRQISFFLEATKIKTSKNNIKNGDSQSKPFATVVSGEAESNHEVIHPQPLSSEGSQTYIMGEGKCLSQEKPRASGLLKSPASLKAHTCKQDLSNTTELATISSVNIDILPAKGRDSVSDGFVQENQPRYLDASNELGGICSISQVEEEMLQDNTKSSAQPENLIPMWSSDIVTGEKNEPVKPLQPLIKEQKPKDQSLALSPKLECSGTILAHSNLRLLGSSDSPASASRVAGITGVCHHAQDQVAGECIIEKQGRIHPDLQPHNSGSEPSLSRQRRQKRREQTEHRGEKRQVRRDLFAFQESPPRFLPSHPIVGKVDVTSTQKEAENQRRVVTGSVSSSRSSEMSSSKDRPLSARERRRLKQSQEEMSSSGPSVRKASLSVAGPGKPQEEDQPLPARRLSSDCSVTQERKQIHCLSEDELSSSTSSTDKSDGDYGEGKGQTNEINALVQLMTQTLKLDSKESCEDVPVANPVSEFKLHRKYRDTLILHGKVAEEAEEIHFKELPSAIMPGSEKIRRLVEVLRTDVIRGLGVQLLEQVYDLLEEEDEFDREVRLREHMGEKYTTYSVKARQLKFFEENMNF
Sequence of UniProt Q9HC98 (whole entry, looked up): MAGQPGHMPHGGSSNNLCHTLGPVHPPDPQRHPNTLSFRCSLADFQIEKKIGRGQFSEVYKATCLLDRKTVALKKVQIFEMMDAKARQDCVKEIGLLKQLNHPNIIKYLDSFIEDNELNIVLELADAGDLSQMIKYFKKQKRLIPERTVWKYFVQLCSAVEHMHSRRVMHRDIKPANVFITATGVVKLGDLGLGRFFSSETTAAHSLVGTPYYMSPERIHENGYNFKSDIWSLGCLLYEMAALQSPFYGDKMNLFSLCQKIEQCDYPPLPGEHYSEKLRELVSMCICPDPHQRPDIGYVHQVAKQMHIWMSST

Set 1
Target: Max dimerization protein 1, bHLH-zipper, MAX partner unstated (MXD1, Homo sapiens, UniProt Q05195, residues 56-136)
Method: protein-binding microarray
Molecule type: double-stranded DNA, one strand shown
Sample: in vitro
Concentration: not given
Setting: k-mer, scored over probes, only values ≥0.25
Direction: higher = stronger binding
Quantity: E-score
Residues (chain): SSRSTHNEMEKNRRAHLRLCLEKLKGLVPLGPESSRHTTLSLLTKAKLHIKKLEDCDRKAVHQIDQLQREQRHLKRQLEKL
CCCACTAC: 0.279
CCACCTGG: 0.35
ATGCACGC: 0.348
CCCTCCCC: 0.327
ACATGTAT: 0.361
GGGGCGAA: 0.255
AGGCGTGG: 0.342
CCCGCCTC: 0.331

Set 2
Compound: O=S(=O)(NC1CCC(c2cc(F)ccc2F)(S(=O)(=O)c2ccc(Cl)cc2)CC1)C(F)(F)F (stereo not shown)
Concentration: 1 µM
Quantity: remaining binding
FER (Homo sapiens, UniProt P16591); cell-free assay, competition with immobilised ligand: 100%
ABL2 (Homo sapiens, UniProt P42684); cell-free assay, competition with immobilised ligand: 100%
ALK (Homo sapiens, UniProt Q9UM73, C1156Y); cell-free assay, competition with immobilised ligand: 100%
SIK1 (Homo sapiens, UniProt P57059); competition binding: 100%
WEE2 (Homo sapiens, UniProt P0C1S8); cell-free assay, competition with immobilised ligand: 100%
PAK1 (Homo sapiens, UniProt Q13153); cell-free assay, competition with immobilised ligand: 93%
SGK2 (Homo sapiens, UniProt Q9HBY8); cell-free assay, competition with immobilised ligand: 93%
VRK2 (Homo sapiens, UniProt Q86Y07); cell-free assay, competition with immobilised ligand: 100%
NEK6 (Homo sapiens, UniProt Q9HC98); cell-free assay, competition with immobilised ligand: 100%
NEK4 (Homo sapiens, UniProt P51957); cell-free assay, competition with immobilised ligand: 100%
FLT3 (Homo sapiens, UniProt P36888, D835Y); cell-free assay, competition with immobilised ligand: 98%
CAMKK2 (Homo sapiens, UniProt Q96RR4); cell-free assay, competition with immobilised ligand: 100%
Aurora kinase B (AURKB, Homo sapiens, UniProt Q96GD4); cell-free assay, competition with immobilised ligand: 100%
IRAK3 (Homo sapiens, UniProt Q9Y616); cell-free assay, competition with immobilised ligand: 98%
LATS2 (Homo sapiens, UniProt Q9NRM7); binding, competition with immobilised ligand: 0%
ACVR2B (Homo sapiens, UniProt Q13705); binding, competition with immobilised ligand: 95%
LTK (Homo sapiens, UniProt P29376); cell-free assay, competition with immobilised ligand: 100%

Set 3
Compound: CCCCc1c(-c2ccc(O)cc2)[nH]c2nccnc12
Effect on: enzyme activity
Action: inhibitor
Concentration: 0.5 µM
Baseline: control
Quantity: remaining activity
DDR2 (Homo sapiens, UniProt Q16832): 96%
MARK2 (Homo sapiens, UniProt Q7KZI7): 76.1%
MAPK1 (Homo sapiens, UniProt P28482): 106%
MAPK14 (Homo sapiens, UniProt Q16539): 102%
PRKG2 (Homo sapiens, UniProt Q13237): 92.6%
RPS6KA4 (Homo sapiens, UniProt O75676): 87.5%
CLK3 (Homo sapiens, UniProt P49761): 121%
PAK3 (Homo sapiens, UniProt O75914): 97.7%
Cyclin-dependent kinase 1, with cyclin A (CDK1, Homo sapiens, UniProt P06493): 60.3%
MINK1 (Homo sapiens, UniProt Q8N4C8): 82%
MARK4 (Homo sapiens, UniProt Q96L34): 84.6%
PNCK (Homo sapiens, UniProt Q6P2M8): 109%
KDR (Homo sapiens, UniProt P35968): 89.8%

Set 4
Target: Centromere-binding protein 1, full length, N-terminal tag (CBF1, Saccharomyces cerevisiae, UniProt P17106, residues 1-351)
Sequence of UniProt P17106 (whole entry, looked up): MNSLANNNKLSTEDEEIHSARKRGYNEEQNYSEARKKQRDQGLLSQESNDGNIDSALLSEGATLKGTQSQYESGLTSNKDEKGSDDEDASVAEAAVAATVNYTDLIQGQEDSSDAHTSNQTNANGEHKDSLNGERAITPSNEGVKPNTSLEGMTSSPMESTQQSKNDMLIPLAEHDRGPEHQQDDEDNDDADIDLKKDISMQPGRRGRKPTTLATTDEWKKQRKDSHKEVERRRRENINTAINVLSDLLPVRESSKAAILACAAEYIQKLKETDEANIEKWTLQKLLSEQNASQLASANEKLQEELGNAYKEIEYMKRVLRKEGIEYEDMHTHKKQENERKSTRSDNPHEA
Method: protein-binding microarray
Molecule type: double-stranded DNA, one strand shown
Sample: in vitro
Concentration: 0.8 µM
Setting: whole 60-bp probe, no competitor
Direction: higher = stronger binding
Quantity: fluorescence intensity
Constant ends, left off below: … GTCTTGATTCGCTTGACGCTGCTG
CCTAACTACTATAATCATGCGGAATAGCTTCGTACA: 544 a.u.
GAAATTTGCCAGGGTCACAATGTCGTTTGCCTCTAG: 537 a.u.
GAACGAGGTTTTAAAAACGTGTGATTAGCTTGATAG: 602 a.u.
CTATACTTATGATATCACGACAGCAAATACTAATTC: 667 a.u.
GAAAGACGGCAAGGTCCCATCAGCTGTACAAAATAG: 594 a.u.
CTAACATTTTAACTACACGTTTAAAATATTCAATTC: 566 a.u.
CTAGATTTATACCTCCTGACCAAATGGGAAAATTTC: 917 a.u.
GAATTACTCAAATGTGTCACAATTTCAACTTCTTAG: 540 a.u.

Some of these lines once more (set 3):
RPS6KA4 (Homo sapiens, UniProt O75676): 87.5%
CLK3 (Homo sapiens, UniProt P49761): 121%
PAK3 (Homo sapiens, UniProt O75914): 97.7%
Cyclin-dependent kinase 1, with cyclin A (CDK1, Homo sapiens, UniProt P06493): 60.3%
MINK1 (Homo sapiens, UniProt Q8N4C8): 82%
MARK4 (Homo sapiens, UniProt Q96L34): 84.6%
PNCK (Homo sapiens, UniProt Q6P2M8): 109%
